Measurements pooled from the literature.
Each line is one published result; not all experiments were run side by side. Several values in a cell are separate wells, animals, samples, runs or records.
Target: Cytochrome P450 2C9 (CYP2C9, Homo sapiens, UniProt P11712)
Chain of UniProt P11712 (whole entry, looked up): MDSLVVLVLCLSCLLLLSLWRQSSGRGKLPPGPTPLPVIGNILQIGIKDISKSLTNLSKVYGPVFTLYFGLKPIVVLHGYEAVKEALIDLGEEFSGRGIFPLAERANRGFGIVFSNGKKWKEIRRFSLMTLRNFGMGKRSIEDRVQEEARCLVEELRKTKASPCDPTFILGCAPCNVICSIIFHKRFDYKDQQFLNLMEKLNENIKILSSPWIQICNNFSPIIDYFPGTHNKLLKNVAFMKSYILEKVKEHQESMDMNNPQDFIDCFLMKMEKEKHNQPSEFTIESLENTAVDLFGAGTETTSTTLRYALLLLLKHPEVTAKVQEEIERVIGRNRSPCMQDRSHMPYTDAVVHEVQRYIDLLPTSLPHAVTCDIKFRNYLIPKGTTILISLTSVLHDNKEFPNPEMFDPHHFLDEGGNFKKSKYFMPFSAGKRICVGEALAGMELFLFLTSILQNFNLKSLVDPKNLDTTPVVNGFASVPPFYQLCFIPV

`C[N+]1(CC(=O)OC2CCCCCCCCCCC2)CCCCC1` has an IC50 of greater than 10 µM (inhibitor).
`CCC(=O)N(C)c1ccc(Cl)c(Cl)c1` gave a half-life of greater than 3 h (recombinant enzyme Supersomes; 1 µM, added: NADPH).
For `O=C(CS(=O)(=O)Cc1ccco1)C12CC3CC(CC(C3)C1)C2`, the inhibition was 52% (10 µM).
`CC(C)(C)[C@H](NC(=O)[C@H](CCONC(=N)N)NC(=O)Cc1ccc(CNC(=N)N)cc1)C(=O)N[C@@H](CCONC(=N)N)C(=O)NCc1ccc(C(=N)N)cc1` — result for enzyme activity: “no effect” (human liver microsomes; 50 µM).
For `Brc1ccccc1-c1nnc(CSc2nnnn2-c2ccccc2)o1`, the inhibition was 86% (enzyme activity, inhibitor, fluorescence; insect cell microsomes; 10 µM).
For `COc1cc(OC)c(F)c(/C=C/c2cnc3ccn(S(=O)(=O)c4cn(CCF)cn4)c3n2)c1F`, the inhibition was 21% (enzyme activity, inhibitor; human, liver microsomes; 10 µM, 20 min, pH 7.4).
`NS(=O)(=O)NCC(F)(F)c1ccccc1F` has an IC50 of > 120 µM and > 74 µM (enzyme activity, inhibitor, fluorescence).
`Cc1ncncc1-c1ccc(C(=O)N2CC[C@H](C(=O)Nc3cc(F)c(F)c(F)c3)C2)[nH]1` gave an inhibition of 90% (enzyme activity, inhibitor; human, liver microsomes; 10 µM, 10 min, pH 7.4).
For `COC(=O)c1ccc2c(c1)NC(=O)/C2=C(\Nc1ccc2c(c1)CCN2C(=O)CN1CCOCC1)c1ccccc1`, the IC50 was 35.2 µM (10 min, added: diclofenac 5 µM).
`Cc1ccc(OCC(=O)N(Cc2cccs2)c2ccn[nH]2)cc1` gave an inhibition of 39% (enzyme activity, inhibitor, fluorescence; Sf9; 10 µM).
`CCC1CC2C(C)=CC3C(=O)CCCC3C=CC(C)=CC2C(=O)O1` (stereo not drawn) gave a remaining activity of 102% (human liver microsomes; 10 µM, 10 min, pH 7.4, added: diclofenac 1 µM; relative to: untreated).
`C=CC(=O)Nc1cc(Nc2nccc(-c3cn(C)c4ccccc34)n2)c(OCC(F)(F)F)nc1N(C)CCN(C)C`: “activity vs control” 94.5% (enzyme activity, inhibitor; human, liver microsomes; 0.1 µM).

Repeated from above:
For `COc1cc(OC)c(F)c(/C=C/c2cnc3ccn(S(=O)(=O)c4cn(CCF)cn4)c3n2)c1F`, the inhibition was 21% (enzyme activity, inhibitor; human, liver microsomes; 10 µM, 20 min, pH 7.4).
For `Brc1ccccc1-c1nnc(CSc2nnnn2-c2ccccc2)o1`, the inhibition was 86% (enzyme activity, inhibitor, fluorescence; insect cell microsomes; 10 µM).
